Measured values of several laboratories.
Parts stem from different laboratories: compare values within a part only. Changes are numbered by the printed parent chain.

Set 1
Target: RNA binding protein fox-1 homolog 2, RRM domain, GST-SBP tag (RBFOX2, Homo sapiens, UniProt O43251-10, residues 100-194)
Technique: RNA Bind-n-Seq
Form: RNA
Medium: in vitro
Concentration: 365 nM
Setting: natural RNA segment, single round, ends assumed
Reference: no-protein control
Reading: higher = stronger binding
Quantity: RBNS enrichment (R)
All sequences stand within: GGGAGUUCUACAGUCCGACGAUC … UGGAAUUCUCGGGUGCCAA
Construct (chain): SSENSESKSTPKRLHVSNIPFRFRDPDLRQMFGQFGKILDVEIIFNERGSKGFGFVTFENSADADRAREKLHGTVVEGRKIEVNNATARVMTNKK
GGGAUAAUCCCUGAAGAGUUGGCAGUGUGAGUGCAACUCAUUUAUCUUCUGUGAGGUGGGAUUUUUGUGUUCCUCACACCCAUGUAAUUAUUCUUAGAAUUGAGAUUGCU: 0.571
CACCGAGAAGACAAGGGAAGGUCUUCCCCCCAGAGGCACAUUCCUGUCCGUCUUUCUGCUGCACACCUGGACCAAGCUUGCAGGCUGCCAGACUCACUCAACCUCCAGAG: 1.39
CUCUGUGCUGACCUUAUUCUUGGGGAAGGGAACAGAUUUUGACCUAGAUCAAGUGUAACUUAGGUCCUCACCCUUGGGACGACCUUGCCUUUUCUGCCUUGAGGGGCAGU: 0.297
GCCAAAGGCCAGCCUCCUGGCCCCAAUACCCAUUUUGGAAGCCCCUGUGGCCGUGUGGAUGUCGGUAACAGUUGUAUAAAAUAAAUUCUAUUUAUCGCUAUUGUACCCAG: 0.259
CCUGUGGGUUCUUGCCCAUCAGGGUAAUUGUAUUGAGAACUCAAAUAUACGUGCACUUACAUGUGUGGUUCGUACUCAAGUGAUCUAUUAUCUAGCUGCAAAGCCUGGCU: 0.256
GUUUUAAAUAAAAGGAAAGAGCAAGUUUGCUCAGUCAAGUGAUCAGAUCCCGAAUCUAGAUUCCCAGUUCUAAGGCCUUAUCACCUCCCCUGCCCAUAGGCCAACAACCA: 0.334
CACUUUUGGCCAAGGGUCUUGGGUAACAUCCUGGGUUGAAGUUGCCAAGCUUCAUCUUACUGAAAAAGACUCAGACCCUCAGCAAAGAACAAUGGAGAGAAAGUAGGUGA: 0.325
UAGCUGUUCACCUUGAAGACAGGCCUUAGUGUCACGCAGGUUUAUUACAGUGGCAUGAUGGUGACCUGUGCAGUCACUGAGCUGUAGGAGUGAGGCAUGUGCUGCACGUC: 13.9
UGGUAGUUUUUUUGUUCUUUUAAACUGAGCUCAGCGAGUUUGGCCCACACUGGUGGGCUGCUGGGUAUUCAGCCACCACACUCUUCACUGCUUGGACCUAGUUGGUGUUU: 0.967
UUGCUAAGUCUAUUGAUGAUAUGAAUUGGAAAGGGAGAAUUUUGAAUAUGGUGAGAAAUUGGGAAAAAUGGACAUUGAUAGGCAUAUCAUCUGCUUUGUGUACAUAUGGU: 1.76
CUGAGGGAUUCUGACUAAUGUGGUUUUUAAAACUUGGGUGUACUUUUUAGGAAAAUUGCAUCUGGCUAUGUAUAAAACAGACCUAAAAUAAAUUUCUUUGAUGUCUUCCC: 0.555
UGAGGACCUGCAUCUUGCAGAUGAUGUAGCAAGCCUUAGGAUGGUUCAUGAUCAGUAGGAAGCAAAUUCUAAGACCUCAGGGUGUCUUUCUGAGUCUCUCAUUUCUUUAG: 0.397

Set 2
Target: CCND2, cyclin fold, Cln2 fusion (human)
Technique: yeast growth competition, sequencing
Medium: yeast
Setting: weak parent motif
Reference: not given
Reading: higher = stronger binding
Quantity: normalised enrichment score
Parent: MICAL3 docking peptide (human); LQLRRQLSFSEDS; partner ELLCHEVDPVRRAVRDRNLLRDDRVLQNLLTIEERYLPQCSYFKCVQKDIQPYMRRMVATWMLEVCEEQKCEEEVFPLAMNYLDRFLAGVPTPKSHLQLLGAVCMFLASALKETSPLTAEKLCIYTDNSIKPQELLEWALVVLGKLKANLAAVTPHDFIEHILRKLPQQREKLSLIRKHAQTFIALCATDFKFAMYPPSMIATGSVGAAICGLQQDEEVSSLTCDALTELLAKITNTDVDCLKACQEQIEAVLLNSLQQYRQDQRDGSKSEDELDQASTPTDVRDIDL
LQLRRQLNFSEDS [S8N]: 0.11
LQLRRQDSFSEDS [L7D]: -0.0503
LQLRRQLSFSEIS [D12I]: 0.121
LQLRRQESFSEDS [L7E]: 0.241
LQLRRQLSISEDS [F9I]: -0.0605
LQLRRQLSFQEDS [S10Q]: -0.0521
LQLRRQLSKSEDS [F9K]: 0.0406
LQCRRQLSFSEDS [L3C]: 0.638
LQLSRQLSFSEDS [R4S]: 0.403
LQIRRQLSFSEDS [L3I]: 0.715
LQLRRQLSFVEDS [S10V]: -0.0392
LQLRRQRSFSEDS [L7R]: -0.246
LKLRRQLSFSEDS [Q2K]: 0.213
LQLRCQLSFSEDS [R5C]: 0.117
LQLRVQLSFSEDS [R5V]: 0.181
LQLRRQLMFSEDS [S8M]: -0.258
LQLRDQLSFSEDS [R5D]: 0.169
LQLRRQLSFSLDS [E11L]: 0.387
LQLRRQLSLSEDS [F9L]: 0.113
LQLRAQLSFSEDS [R5A]: 0.208
LQLRRQMSFSEDS [L7M]: 0.459
LQLRRQLSFWEDS [S10W]: 0.0593
LQLRRQLSFSMDS [E11M]: -0.221
LQLDRQLSFSEDS [R4D]: 0.127
LQLRMQLSFSEDS [R5M]: 0.133

Set 3
Target: Interferon regulatory factor 5, full length, phosphomimetic (IRF5, Homo sapiens, UniProt Q13568-2, residues 1-514, K96S/S451D/S453D/S456D/S462D)
Technique: protein-binding microarray
Form: double-stranded DNA, one strand shown
Medium: in vitro
Concentration: 250 nM
Setting: 60-bp whole probe
Together with: salmon DNA 0.4 mg/ml
Reference: random background probes
Reading: higher = stronger binding
Quantity: log fluorescence
All sequences stand within: GCCTAGCAC … GTCTTGATTCGCTTGACGCTGCTG
TACTTTCTATCTCTGTTTTTGTGCTAG: 7.4 z-score
TTAGATATCGGGTATCTATTAGTGCTA: 3.16 z-score
TTAGAACTGGGGTATCGCTTAGTGCTA: 0.565 z-score
GACGAGATCGGGTTTCGAGACGTGCTA: 1.67 z-score
TTAGATTTGGGGACTGGATTAGTGCTA: -0.0992 z-score
TTAGGTCTCGGACCGGGTTAGTGCTAG: -0.212 z-score
TCATTTTTTTTTGTATTACTGTGCTAG: 1.52 z-score
CGCGCTTCTCGGCGGCGAAGGTGCTAG: -0.7 z-score
TTAGCACTGCTTTTCCTTTAGTGCTAG: 0.598 z-score
GACGAACTGCGACTGGAGACGTGCTAG: -0.298 z-score
TGAGAACTGGGGTTTCGATTAGTGCTA: 5.43 z-score
TTAGATTTCAGCTTCGATTAGTGCTAG: 1.76 z-score
TTAGGTTTCGGTATCGGTAAGTGCTAG: 10.9 z-score
AACGATTCCAGTTTCGAGACGTGCTAG: 6 z-score
TTCCCAATGGTCTTTCCACTTGTGCTA: 0.118 z-score
TGAGGTTTCGGTTCCGGTTAGTGCTAG: 9.33 z-score
GACGGACTGGGACTGTGGACGTGCTAG: -0.787 z-score
TTAGGTCTCGGTCTCGCTTAGTGCTAG: 0.386 z-score
TTAGGTTTCGGTTCCGGTTCGTGCTAG: 10.5 z-score
GGGCATTTAGAAAATGGAAATGTGCTA: -0.117 z-score
TTTTTTTTCATCATTGCCTAGTGCTAG: 2.09 z-score
GACGGTCGCGGTCTCGGGACGTGCTAG: -0.395 z-score
TCAACTCTGTGCTTTCCTACTGTGCTA: 0.434 z-score
GACAGTTTCGGTATCGGGACGTGCTAG: 11 z-score
GACGATTTCGGGTTGCGAGACGTGCTA: 3.5 z-score

Set 4
Target: Prothrombin, mature alpha-thrombin (F2, Homo sapiens, UniProt P00734)
Technique: aptamer microarray, sandwich
Form: DNA with 2'F-ANA
Medium: in vitro
Concentration: 200 nM
Setting: whole 15-mer aptamer, many near background
Together with: Cy3 exosite-II aptamer, 400 nM
Reading: higher = stronger binding
Quantity: mean fluorescence intensity
Oligonucleotide: GGTTGGTGTGGTTGG
2'F-ANA at 1 2 9 11 15: 148 a.u.
2'F-ANA at 2 7 8 12 15: 758 a.u.
2'F-ANA at 1 2 4 5 9 10 12 13 14: 60 a.u.
2'F-ANA at 1 3 9 10 11 12: 103 a.u.
2'F-ANA at 1 2 5 7 8 9 10 13: 170 a.u.
2'F-ANA at 2 3 6 7 8 10 13 14: 278 a.u.
2'F-ANA at 2 6 8 9 10 11 12: 120 a.u.
2'F-ANA at 1 2 7 8 9 11 13 14: 49.5 a.u.
2'F-ANA at 2 6 9 10 11 12 15: 127 a.u.
2'F-ANA at 3 4 5 6 10 15: 53.3 a.u.
2'F-ANA at 2 4 5 6 8 9 13 14 15: 48.3 a.u.
2'F-ANA at 4 5 7 9 11 12: 115 a.u.
2'F-ANA at 2 3 4 5 8 14: 52.3 a.u.
2'F-ANA at 3 5 7 8 9 10 11 12: 73.9 a.u.
2'F-ANA at 1 4 6 8 10 11 12 14 15: 53.4 a.u.
2'F-ANA at 1 5 6 7 8 9 13 14: 52.3 a.u.
2'F-ANA at 1 4 6 7 9 10 13: 48.2 a.u.
2'F-ANA at 2 3 6 9 11: 627 a.u.
2'F-ANA at 4 7 9 10 11 12 13: 81.9 a.u.
2'F-ANA at 1 2 7 10 14 15: 46.6 a.u.
2'F-ANA at 1 2 4 5 7 9 10 11 12 13 14: 46.5 a.u.
2'F-ANA at 3 4 5 7 8 12 14: 70.6 a.u.
2'F-ANA at 1 3 4 5 6 8 10 11 12 14: 207 a.u.
2'F-ANA at 2 3 5 8 10 14 15: 50.4 a.u.

A few entries again (set 3):
TTAGATATCGGGTATCTATTAGTGCTA: 3.16 z-score
TTAGAACTGGGGTATCGCTTAGTGCTA: 0.565 z-score
GACGAGATCGGGTTTCGAGACGTGCTA: 1.67 z-score
TTAGATTTGGGGACTGGATTAGTGCTA: -0.0992 z-score
